Experimental data from different studies.
Parts stem from different laboratories: compare values within a part only.
Chain of UniProt Q12866 (whole entry, looked up): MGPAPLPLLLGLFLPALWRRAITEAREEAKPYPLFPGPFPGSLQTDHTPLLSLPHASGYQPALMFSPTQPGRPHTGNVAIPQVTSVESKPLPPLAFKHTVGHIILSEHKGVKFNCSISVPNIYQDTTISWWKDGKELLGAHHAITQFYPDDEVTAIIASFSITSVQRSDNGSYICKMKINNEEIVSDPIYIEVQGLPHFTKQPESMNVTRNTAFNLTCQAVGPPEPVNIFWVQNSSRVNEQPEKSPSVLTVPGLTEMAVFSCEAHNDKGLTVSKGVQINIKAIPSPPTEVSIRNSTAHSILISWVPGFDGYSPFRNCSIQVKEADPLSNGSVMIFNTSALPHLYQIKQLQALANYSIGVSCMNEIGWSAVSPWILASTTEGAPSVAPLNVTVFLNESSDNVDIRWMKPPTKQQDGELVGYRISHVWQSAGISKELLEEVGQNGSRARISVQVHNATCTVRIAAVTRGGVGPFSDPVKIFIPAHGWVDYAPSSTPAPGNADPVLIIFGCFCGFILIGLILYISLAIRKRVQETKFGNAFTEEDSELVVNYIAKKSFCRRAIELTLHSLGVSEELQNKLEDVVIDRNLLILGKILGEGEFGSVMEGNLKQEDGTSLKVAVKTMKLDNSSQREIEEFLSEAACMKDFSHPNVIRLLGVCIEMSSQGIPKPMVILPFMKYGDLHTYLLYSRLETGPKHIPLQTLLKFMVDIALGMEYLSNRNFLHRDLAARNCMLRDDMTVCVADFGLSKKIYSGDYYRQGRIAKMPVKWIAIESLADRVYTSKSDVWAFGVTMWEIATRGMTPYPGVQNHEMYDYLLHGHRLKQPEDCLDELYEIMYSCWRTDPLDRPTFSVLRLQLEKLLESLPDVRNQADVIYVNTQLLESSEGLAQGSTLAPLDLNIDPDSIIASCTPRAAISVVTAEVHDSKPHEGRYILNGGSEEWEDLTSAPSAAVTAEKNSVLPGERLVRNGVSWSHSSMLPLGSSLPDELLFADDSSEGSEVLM
Chain of UniProt Q04912 (whole entry, looked up): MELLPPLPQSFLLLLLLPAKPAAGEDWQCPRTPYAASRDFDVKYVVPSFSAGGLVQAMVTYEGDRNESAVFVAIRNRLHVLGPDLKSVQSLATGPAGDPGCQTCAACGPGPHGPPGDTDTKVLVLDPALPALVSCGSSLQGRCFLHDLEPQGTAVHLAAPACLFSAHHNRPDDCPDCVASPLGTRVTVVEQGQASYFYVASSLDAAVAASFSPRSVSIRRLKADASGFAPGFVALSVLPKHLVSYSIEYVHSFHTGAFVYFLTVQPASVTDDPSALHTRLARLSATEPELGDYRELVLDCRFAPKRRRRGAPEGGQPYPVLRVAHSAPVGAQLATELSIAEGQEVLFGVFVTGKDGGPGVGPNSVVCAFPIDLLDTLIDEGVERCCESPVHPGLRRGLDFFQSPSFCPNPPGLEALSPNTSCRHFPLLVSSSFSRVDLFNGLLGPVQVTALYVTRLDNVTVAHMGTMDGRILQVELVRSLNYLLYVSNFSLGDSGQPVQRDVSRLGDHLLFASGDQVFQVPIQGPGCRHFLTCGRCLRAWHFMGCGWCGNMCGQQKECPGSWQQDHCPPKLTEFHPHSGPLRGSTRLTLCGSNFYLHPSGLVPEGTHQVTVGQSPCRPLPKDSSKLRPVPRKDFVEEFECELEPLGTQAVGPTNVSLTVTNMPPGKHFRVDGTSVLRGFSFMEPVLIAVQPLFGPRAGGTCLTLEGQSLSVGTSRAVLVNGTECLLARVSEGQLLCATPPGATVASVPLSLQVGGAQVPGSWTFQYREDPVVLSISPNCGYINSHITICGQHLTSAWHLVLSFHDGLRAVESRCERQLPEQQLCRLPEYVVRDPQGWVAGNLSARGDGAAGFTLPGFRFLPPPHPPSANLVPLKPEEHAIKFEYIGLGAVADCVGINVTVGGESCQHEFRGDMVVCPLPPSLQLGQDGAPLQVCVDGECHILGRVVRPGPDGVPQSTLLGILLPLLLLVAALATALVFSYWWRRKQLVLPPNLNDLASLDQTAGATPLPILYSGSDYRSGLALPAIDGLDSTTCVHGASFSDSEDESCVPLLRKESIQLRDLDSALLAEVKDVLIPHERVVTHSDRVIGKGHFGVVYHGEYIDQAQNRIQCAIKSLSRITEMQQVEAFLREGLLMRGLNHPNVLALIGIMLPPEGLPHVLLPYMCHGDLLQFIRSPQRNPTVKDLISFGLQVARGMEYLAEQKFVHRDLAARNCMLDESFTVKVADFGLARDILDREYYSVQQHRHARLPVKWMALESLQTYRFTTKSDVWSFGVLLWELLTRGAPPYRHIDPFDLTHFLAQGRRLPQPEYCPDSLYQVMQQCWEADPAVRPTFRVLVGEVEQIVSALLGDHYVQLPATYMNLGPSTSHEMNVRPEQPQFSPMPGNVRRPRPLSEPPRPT
Chain of UniProt Q15349 (whole entry, looked up): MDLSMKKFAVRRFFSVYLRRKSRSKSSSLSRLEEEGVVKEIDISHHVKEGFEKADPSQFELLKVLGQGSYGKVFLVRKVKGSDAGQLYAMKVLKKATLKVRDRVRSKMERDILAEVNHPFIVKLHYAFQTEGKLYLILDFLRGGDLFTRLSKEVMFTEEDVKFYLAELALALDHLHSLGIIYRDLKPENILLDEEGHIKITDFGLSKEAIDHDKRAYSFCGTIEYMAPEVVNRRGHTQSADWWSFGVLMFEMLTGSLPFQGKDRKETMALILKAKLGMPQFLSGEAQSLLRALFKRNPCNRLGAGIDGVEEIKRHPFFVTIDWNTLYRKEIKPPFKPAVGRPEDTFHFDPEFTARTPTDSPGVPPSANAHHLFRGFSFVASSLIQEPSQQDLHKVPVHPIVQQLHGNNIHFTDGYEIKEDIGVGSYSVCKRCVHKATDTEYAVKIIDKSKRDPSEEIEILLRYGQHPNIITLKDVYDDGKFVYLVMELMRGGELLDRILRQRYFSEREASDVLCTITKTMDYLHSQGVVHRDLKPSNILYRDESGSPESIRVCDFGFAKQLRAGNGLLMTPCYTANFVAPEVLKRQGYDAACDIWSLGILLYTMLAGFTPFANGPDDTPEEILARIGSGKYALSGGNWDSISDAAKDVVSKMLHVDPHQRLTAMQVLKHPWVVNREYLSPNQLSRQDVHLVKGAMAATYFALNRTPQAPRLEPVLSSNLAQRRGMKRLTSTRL
Chain of UniProt P30291 (whole entry, looked up): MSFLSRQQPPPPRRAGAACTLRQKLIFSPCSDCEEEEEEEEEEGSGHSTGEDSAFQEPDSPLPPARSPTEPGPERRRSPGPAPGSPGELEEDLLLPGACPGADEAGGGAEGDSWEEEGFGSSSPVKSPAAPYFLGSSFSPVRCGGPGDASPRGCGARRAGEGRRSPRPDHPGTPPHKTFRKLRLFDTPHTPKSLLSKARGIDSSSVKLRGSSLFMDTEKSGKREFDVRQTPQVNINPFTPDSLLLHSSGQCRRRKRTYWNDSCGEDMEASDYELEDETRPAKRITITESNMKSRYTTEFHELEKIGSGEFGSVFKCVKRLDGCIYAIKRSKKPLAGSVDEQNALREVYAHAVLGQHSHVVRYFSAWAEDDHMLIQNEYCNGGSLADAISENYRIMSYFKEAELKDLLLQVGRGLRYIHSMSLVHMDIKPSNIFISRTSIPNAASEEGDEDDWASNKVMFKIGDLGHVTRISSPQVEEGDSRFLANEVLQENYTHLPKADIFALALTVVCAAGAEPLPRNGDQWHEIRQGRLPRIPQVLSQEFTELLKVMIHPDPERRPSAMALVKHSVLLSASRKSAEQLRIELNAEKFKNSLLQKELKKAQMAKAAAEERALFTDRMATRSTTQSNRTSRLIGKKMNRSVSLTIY
Chain of UniProt Q99558 (whole entry, looked up): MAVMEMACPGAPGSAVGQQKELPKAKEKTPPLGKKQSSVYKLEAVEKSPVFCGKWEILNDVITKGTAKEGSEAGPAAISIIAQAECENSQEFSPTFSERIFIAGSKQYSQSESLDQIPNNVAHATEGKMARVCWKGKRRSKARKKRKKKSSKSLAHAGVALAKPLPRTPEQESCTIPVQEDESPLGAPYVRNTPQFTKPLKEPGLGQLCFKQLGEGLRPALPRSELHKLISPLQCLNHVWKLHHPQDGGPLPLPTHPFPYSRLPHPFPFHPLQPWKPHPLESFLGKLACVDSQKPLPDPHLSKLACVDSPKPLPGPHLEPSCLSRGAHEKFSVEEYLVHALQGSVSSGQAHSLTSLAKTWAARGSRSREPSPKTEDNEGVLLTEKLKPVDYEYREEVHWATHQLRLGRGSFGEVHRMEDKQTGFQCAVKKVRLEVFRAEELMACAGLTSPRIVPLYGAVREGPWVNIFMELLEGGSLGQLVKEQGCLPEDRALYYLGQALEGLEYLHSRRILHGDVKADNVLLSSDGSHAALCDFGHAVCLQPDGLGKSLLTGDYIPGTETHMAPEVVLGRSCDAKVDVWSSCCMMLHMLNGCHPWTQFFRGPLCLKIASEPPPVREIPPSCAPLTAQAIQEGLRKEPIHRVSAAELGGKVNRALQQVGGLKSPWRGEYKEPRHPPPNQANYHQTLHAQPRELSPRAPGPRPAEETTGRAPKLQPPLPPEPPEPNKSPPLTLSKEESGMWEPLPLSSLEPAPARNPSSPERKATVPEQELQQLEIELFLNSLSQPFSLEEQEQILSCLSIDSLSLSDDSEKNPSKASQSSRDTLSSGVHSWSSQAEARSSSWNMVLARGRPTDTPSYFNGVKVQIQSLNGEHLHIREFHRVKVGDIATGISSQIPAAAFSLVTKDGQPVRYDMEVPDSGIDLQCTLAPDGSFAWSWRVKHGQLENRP
Chain of UniProt P27361 (whole entry, looked up): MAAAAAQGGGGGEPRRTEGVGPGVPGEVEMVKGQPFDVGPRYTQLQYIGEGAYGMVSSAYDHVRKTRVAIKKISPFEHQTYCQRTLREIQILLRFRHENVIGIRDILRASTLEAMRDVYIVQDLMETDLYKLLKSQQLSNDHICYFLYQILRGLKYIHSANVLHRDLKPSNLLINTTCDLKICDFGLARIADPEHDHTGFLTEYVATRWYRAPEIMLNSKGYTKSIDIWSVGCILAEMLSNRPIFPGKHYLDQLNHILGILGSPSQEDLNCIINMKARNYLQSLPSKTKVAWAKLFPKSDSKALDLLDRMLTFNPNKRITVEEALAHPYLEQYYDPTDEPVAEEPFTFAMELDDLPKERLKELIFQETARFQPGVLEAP

Sample 1
SMILES: c1ccc(-c2n[nH]c3c2oc2ccccc23)cc1
Observed: enzyme activity
Action: inhibitor
Tested at: 0.5 µM
Relative to: control
Quantity: remaining activity
MAP3K14 (Homo sapiens, UniProt Q99558): 71.8%
TEK (Homo sapiens, UniProt Q02763): 96.8%
ACVR1B (Homo sapiens, UniProt P36896): 96.6%
MERTK (Homo sapiens, UniProt Q12866): 80%
ARAF (Homo sapiens, UniProt P10398): 93.8%
EPHA3 (Homo sapiens, UniProt P29320): 104%
TAOK2 (Homo sapiens, UniProt Q9UL54): 80.7%
MST1R (Homo sapiens, UniProt Q04912): 87.3%
GRK7 (Homo sapiens, UniProt Q8WTQ7): 102%
WEE1 (Homo sapiens, UniProt P30291): 92.6%
RPS6KA2 (Homo sapiens, UniProt Q15349): 77.5%
MAPK3 (Homo sapiens, UniProt P27361): 87.3%
GSK3B (Homo sapiens, UniProt P49841): 105%
NEK1 (Homo sapiens, UniProt Q96PY6): 95.2%

Sample 2
Target: TAR DNA-binding protein 43, full length, His tag (TARDBP, Homo sapiens, UniProt Q13148, residues 1-414)
Method: RNA Bind-n-Seq
Molecule type: RNA
Matrix: in vitro
Tested at: 20 nM
Setting: 6-mer, flanks averaged, single round
With: 150 mM LiCl
Relative to: input library
Reading: higher = stronger binding
Quantity: 6-mer enrichment (R)
CAUCCU: 0.871
GAUCAC: 0.822
UUCGAU: 0.852
GGGUUU: 1.21
CAGGAU: 0.862
CUGAUG: 0.916
AUUACA: 0.882
GUACAA: 0.855

Sample 3
SMILES: COc1ccc2c(O[C@@H]3C[C@H]4C(=O)N[C@]5(C(=O)O)CC5/C=C\CCCCC[C@H](NC(=O)OC5CCCC5)C(=O)N4C3)cc(-c3csc(NC(=O)C(C)C)n3)nc2c1C (stereo partly drawn)
Observed: cell-free assay
Method: competition with immobilised ligand
Tested at: 1 µM
Quantity: remaining binding
PRKACA (Homo sapiens, UniProt P17612): 97%
PKMYT1 (Homo sapiens, UniProt Q99640): 100%
PTK2B (Homo sapiens, UniProt Q14289): 100%
SGK1 (Homo sapiens, UniProt O00141): 81%
CDC42BPA (Homo sapiens, UniProt Q5VT25): 100%
MAP4K3 (Homo sapiens, UniProt Q8IVH8): 100%

Sample 4
Target: Fragile X messenger ribonucleoprotein 1, C-terminal low-complexity region (Fmr1, Mus musculus, UniProt P35922)
Method: RNA Bind-n-Seq
Molecule type: RNA
Matrix: in vitro
Tested at: 200 nM
Setting: whole 134-nt RNA, ends assumed
With: 150 mM LiCl
Relative to: input library
Reading: higher = stronger binding
Quantity: log2 enrichment
Library: 7-deaza-guanosine replaces G
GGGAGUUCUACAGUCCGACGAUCUCCUGUGCUACACAUCGUAUGUACCGAAUCGGGCCCCCCGGCCCCCCGGCCCCCCGGGGAAAGUAUUAUGUUACGCCGUUCGGAUCUGCAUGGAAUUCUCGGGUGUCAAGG: 1.42
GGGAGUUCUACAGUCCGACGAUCCCUCAAGUCCUGUGCUACACAUCGUAUGUACCGAAUCGGGAAGGAAGGAAGGGAAAGUAUUAUGUUACGCCGUUCGGAUCUGCACUUCCAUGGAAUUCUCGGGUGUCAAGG: -1.1
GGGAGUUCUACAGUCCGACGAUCCACAGACAACACGCACCCACACAGACACAGAGGGAAGGGGUUGGGAUGGUGACAGGGUGCACAGCAGGGCGGGGUAGGACCCCAGCCCCUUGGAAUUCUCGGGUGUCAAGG: -0.0886
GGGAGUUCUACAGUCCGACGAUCUGUGAAAGAAAACCGAAGUUUUAAAUGACUUCUCAUGGUUAUUUUUUUUCCUUUCUCUUGCAGGACAUUGGGGACACAUUGAGCAGGUAUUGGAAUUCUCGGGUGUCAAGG: -1.61
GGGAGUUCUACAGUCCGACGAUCCUGUGCUACACAUCGUAUGUACCGAAUCGGGGAAAAAAAGGGAAAAAAAGGGGAAAAAAAGGAAAGUAUUAUGUUACGCCGUUCGGAUCUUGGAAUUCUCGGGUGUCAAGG: 0.304
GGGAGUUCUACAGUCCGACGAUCCACAGACAACACGCACCCACACAGACACAGAGGGAAGGGGUUGGGAUGGGGACAGGGAGCACAGCAGGGCGGGGUAGGACCCCAGCCCCUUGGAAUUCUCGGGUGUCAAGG: 0.844
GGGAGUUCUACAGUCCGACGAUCUGGCCCUGGUGGCAUGCGUGGAGGAAGAGGUGGCCUCAUGGAUCGUGGUGGUCCCGGUGGAAUGUUCAGAGGUGGCCGUGGUGGAGACAGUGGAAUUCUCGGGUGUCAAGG: -0.0591
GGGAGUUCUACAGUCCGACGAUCCUGUGCUACACAUCGUAUGUACCGAAUCGGGCCCCCCCGGGGCCCCCCCGGCCCCCCCGGGAAAGUAUUAUGUUACGCCGUUCGGAUCUGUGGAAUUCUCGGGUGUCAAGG: -0.856

A few entries again (sample 3):
MAP4K3 (Homo sapiens, UniProt Q8IVH8): 100%
PRKACA (Homo sapiens, UniProt P17612): 97%
PKMYT1 (Homo sapiens, UniProt Q99640): 100%
SGK1 (Homo sapiens, UniProt O00141): 81%
CDC42BPA (Homo sapiens, UniProt Q5VT25): 100%
